Published values gathered from unrelated publications.
A part holds a random share of what one study measured.
Chain of UniProt P51451 (whole entry, looked up): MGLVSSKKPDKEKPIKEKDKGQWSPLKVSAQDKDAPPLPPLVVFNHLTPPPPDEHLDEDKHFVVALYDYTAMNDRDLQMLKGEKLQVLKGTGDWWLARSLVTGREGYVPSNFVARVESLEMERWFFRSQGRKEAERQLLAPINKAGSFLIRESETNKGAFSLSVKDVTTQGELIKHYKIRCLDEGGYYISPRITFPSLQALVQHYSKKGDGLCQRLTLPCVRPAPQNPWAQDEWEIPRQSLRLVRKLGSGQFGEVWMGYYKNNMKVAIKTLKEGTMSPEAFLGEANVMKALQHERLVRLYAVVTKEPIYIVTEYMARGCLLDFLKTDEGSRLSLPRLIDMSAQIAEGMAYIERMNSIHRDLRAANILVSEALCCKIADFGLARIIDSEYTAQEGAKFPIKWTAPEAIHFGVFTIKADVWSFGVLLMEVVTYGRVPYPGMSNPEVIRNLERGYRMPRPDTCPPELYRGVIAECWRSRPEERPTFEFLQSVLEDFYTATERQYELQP
Chain of UniProt Q59H18 (whole entry, looked up): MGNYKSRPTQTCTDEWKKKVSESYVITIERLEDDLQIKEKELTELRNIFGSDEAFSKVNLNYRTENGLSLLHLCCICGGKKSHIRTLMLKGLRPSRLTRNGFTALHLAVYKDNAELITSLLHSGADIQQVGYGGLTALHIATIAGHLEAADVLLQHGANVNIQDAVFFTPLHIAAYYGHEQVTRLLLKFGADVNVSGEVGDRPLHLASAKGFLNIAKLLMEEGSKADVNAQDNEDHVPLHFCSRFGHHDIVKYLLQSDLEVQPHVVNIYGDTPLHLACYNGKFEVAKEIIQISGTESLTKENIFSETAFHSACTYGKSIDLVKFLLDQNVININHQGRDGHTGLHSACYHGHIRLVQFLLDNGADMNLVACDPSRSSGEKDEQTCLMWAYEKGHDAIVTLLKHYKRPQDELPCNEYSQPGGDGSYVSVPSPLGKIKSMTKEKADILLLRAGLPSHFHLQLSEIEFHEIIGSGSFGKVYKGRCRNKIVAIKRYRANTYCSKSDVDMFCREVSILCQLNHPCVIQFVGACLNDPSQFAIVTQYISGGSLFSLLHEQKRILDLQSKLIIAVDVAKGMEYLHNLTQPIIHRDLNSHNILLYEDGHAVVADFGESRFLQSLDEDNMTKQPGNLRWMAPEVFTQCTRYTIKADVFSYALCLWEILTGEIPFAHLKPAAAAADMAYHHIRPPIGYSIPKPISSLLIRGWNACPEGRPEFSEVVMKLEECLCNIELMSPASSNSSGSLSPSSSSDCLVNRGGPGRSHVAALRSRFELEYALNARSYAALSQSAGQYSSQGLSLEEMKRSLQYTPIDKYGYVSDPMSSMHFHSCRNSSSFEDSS
Chain of UniProt Q8NEB9 (whole entry, looked up): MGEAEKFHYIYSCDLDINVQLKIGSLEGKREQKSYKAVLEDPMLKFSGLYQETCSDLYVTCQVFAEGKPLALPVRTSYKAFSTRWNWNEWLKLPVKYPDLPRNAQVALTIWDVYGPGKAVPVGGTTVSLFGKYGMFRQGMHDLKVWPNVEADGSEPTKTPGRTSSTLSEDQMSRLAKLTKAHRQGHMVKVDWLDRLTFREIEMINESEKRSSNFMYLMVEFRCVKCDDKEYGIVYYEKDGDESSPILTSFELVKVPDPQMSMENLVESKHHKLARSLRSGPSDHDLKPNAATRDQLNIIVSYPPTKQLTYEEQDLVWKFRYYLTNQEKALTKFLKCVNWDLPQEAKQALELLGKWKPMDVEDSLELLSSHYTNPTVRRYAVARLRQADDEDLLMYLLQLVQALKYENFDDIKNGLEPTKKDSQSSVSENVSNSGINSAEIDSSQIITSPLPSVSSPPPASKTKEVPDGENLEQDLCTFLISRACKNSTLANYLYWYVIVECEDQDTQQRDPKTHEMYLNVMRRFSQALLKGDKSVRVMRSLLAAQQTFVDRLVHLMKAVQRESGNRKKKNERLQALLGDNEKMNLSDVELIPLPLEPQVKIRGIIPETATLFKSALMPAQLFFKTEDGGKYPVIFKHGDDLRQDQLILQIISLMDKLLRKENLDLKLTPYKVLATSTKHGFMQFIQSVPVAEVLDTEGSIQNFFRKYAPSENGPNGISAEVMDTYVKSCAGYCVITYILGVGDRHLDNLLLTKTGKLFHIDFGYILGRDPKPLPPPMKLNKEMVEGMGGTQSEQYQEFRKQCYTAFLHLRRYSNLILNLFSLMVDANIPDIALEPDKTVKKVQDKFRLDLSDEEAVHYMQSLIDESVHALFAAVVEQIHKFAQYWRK
Chain of UniProt P21709 (whole entry, looked up): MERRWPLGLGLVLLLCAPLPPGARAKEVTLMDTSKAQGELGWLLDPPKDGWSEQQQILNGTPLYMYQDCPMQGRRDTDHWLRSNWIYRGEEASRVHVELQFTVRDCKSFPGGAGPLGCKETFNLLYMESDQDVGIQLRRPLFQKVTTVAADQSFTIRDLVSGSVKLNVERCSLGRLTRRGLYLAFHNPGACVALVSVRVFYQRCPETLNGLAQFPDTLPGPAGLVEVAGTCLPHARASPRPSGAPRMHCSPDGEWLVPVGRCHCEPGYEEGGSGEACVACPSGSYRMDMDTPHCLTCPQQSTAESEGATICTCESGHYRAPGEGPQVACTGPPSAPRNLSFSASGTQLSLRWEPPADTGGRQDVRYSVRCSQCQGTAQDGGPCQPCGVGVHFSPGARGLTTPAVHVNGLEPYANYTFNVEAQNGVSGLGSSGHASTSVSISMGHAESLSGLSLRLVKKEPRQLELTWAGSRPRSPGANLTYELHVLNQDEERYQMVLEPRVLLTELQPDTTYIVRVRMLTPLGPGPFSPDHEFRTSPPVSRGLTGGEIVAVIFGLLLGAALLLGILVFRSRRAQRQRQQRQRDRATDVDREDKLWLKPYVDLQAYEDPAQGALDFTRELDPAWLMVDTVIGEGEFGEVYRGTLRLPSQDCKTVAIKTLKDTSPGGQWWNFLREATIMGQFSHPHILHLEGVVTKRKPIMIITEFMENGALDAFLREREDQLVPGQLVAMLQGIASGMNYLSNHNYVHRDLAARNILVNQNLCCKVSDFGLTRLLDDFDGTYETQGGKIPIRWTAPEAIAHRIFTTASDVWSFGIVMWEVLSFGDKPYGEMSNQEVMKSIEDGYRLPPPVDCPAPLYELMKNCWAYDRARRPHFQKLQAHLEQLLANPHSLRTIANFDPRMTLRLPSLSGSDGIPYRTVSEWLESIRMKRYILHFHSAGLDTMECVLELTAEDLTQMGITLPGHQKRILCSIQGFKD
Chain of UniProt Q96GD4 (whole entry, looked up): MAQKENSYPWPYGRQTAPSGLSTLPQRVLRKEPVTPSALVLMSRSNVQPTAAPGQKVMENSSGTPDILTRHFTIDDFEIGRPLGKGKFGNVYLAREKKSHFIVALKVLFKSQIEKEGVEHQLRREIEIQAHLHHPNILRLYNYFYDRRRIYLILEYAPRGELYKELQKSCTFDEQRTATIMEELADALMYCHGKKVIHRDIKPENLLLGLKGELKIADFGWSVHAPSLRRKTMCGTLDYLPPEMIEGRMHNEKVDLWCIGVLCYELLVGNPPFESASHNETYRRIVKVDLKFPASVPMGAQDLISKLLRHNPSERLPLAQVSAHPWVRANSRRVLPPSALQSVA

Block 1 — species: human; matrix: microsomes or S9; tested at: 2 µM; time: 0.5 h
SMILES | remaining compound [%]
COc1ccc(C)cc1N(CC(=O)Nc1ccc(S(=O)(=O)N2CCCC2)cc1)S(C)(=O)=O | 0.688
CCCOc1ccc2c(c1)CNC(CCCCN)C(=O)N2CCc1ccc(OC)cc1 (centres unmarked) | 90.8
CCc1nc(-c2cccc(-c3noc(-c4ccc(Br)o4)n3)c2)cs1 | 43.3
O=C(c1ccccc1)c1cc(Cl)ccc1Nc1cccc2c1N(c1ncccn1)CCC2 | 1.33

Block 2 — observed: enzyme activity; mode: inhibitor; tested at: 0.5 µM; relative to: control
Target: Tyrosine-protein kinase Fer (FER, Homo sapiens, UniProt P16591)
Chain of UniProt P16591 (whole entry, looked up): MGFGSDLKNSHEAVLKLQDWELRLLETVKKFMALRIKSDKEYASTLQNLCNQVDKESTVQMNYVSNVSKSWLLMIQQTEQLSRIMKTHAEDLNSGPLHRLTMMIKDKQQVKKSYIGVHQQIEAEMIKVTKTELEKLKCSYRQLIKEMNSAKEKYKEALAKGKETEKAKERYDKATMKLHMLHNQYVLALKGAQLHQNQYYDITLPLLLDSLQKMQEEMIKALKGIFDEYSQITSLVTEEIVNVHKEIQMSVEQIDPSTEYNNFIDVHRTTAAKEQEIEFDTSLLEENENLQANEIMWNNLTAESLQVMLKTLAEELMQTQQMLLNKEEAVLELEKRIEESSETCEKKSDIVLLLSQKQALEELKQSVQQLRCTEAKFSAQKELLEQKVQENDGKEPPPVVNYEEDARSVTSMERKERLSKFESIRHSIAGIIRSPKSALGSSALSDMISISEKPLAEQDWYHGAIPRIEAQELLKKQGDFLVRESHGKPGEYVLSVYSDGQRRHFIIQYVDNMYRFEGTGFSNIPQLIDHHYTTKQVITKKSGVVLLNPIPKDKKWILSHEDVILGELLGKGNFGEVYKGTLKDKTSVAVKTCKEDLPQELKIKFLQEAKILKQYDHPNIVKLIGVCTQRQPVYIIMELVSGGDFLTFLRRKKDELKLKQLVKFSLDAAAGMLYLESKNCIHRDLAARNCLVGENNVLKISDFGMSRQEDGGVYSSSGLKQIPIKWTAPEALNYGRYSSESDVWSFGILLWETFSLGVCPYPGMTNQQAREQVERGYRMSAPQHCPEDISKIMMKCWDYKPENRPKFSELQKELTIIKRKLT
Compound | remaining activity
Nc1[nH]nc2nc3ccccc3nc12 | 94.4%
Cc1nc(-c2ccccc2)c(-c2ccncc2)o1 | 84.9%
CN(C)c1ccc(C=C2C(=O)Nc3ccccc32)cc1 | 94.5%
O=C1NC(=O)C(c2cn(CCCO)c3ncccc23)=C1c1cnccn1 | 99.2%
Nc1ncnc2n[nH]c(Nc3ccc(F)cc3)c12 | 100%
NCCNc1ncc(C(N)=O)c(Nc2cccc(C(F)(F)F)c2)n1 | 37.5%
OCC(O)CCON=C1C(c2c(O)[nH]c3ccccc23)=Nc2ccccc21 (centres unmarked) | 28.8%
O=S(=O)(c1cccc2cnccc12)N1CCCNCC1 | 103%
COc1cc2ncnc(Nc3ccc(Oc4ccccc4)cc3)c2cc1OC | 75.7%
O=C(CCCc1ccc(-c2ccccc2F)cc1)Nc1ccc(O)cc1 | 103%
CCOC(=O)c1c(C)[nH]c(/C=C2\C(=O)Nc3ccccc32)c1C | 72.5%
Cc1cccc(-c2[nH]c(C(C)(C)C)nc2-c2ccc3c(c2)OCO3)n1 | 85.4%
N#CC(C#N)=C(N)/C(C#N)=C/c1ccc(O)cc1 | 91.1%

Block 3 — observed: cell-free assay; method: competition with immobilised ligand; tested at: 1 µM
SMILES: CS(=O)(=O)NCC[C@H](NC(=O)c1cncc2c1cnn2-c1ccc(F)cc1)c1ccnc(S(C)(=O)=O)c1
target | remaining binding [%]
Phosphatidylinositol 3-kinase catalytic subunit type 3 (PIK3C3, Homo sapiens, UniProt Q8NEB9) | 100
Ephrin type-A receptor 1 (EPHA1, Homo sapiens, UniProt P21709) | 100
Serine/threonine-protein kinase TNNI3K (TNNI3K, Homo sapiens, UniProt Q59H18) | 100
Aurora kinase B (AURKB, Homo sapiens, UniProt Q96GD4) | 100
Tyrosine-protein kinase Blk (BLK, Homo sapiens, UniProt P51451) | 100
Epidermal growth factor receptor (EGFR, Homo sapiens, UniProt P00533, L858R/T790M) | 78

Block 4 — organism: Sarcocystis neurona; observed: parasite growth; tested at: 10 µM; time: 96 h; notes: second screen; relative to: untreated
SMILES | log2 fold change
O=C1N[C@H](C(=O)O)CS1 | 0.00169
C=CC1=C(C(=O)O)N2C(=O)[C@@H](NC(=O)/C(=N\O)c3csc(N)n3)[C@H]2SC1 | 0.13
O=c1c(O[C@@H]2O[C@H](CO)[C@H](O)[C@H](O)[C@H]2O)c(-c2ccc(O)c(O)c2)oc2cc(O)cc(O)c12 | 0.37

Repeated from above (block 3):
target | remaining binding [%]
Serine/threonine-protein kinase TNNI3K (TNNI3K, Homo sapiens, UniProt Q59H18) | 100
Aurora kinase B (AURKB, Homo sapiens, UniProt Q96GD4) | 100
Tyrosine-protein kinase Blk (BLK, Homo sapiens, UniProt P51451) | 100
